Measured values gathered from unrelated publications.
Protocols differ between the studies behind these lines. Several values in a cell are separate wells, animals, samples, runs or records. ± marks the error that the study gave.

Compound | assay | system | conditions | scale | measurement | result
CCc1cc(Nc2nc(-c3ccc(-n4cnc(C)c4)c(F)c3)cs2)c(C)cc1C |  | human, both sexes, plasma | oral, 400 mg, day 1, multiple dose, geometric mean |  | AUC(0-last) | 12000 ng·h/mL
COc1cc(NC(C)=O)c2c(c1O)-c1c(OC)c(OC)cc3c1C(C2)N(C)CC3 (stereo not drawn) |  | rat kidney homogenate | 50 µg/mL, 24 h, room temperature, post-preparative storage |  | remaining compound | 91.5 ± 1.9%
COc1cc(N(C)CCN(C)C)c(NC(=O)CCSCC(N)C(=O)O)cc1Nc1nccc(-c2cn(C3CC3)c3ccccc23)n1 (stereo not drawn) | radio-HPLC, co-eluting peaks pooled | human, feces | 0 to 240 h, sample holds 81.99% dose | relative to: dose | excreted amount | 1.89%
Cn1c(=O)oc2ccc(-c3ccc(CC(C#N)NC(=O)C4CNCCCO4)c(F)c3)cc21 (stereo not drawn) | measured: lymphadenopathy | human volunteers | oral, dose not given |  | treatment-related adverse event incidence | 3.7%
COc1ccc(NC(=O)[C@H](CCCCN)NC(=O)c2cc(NC(=O)[C@H](CCCCN)NC(=O)c3cc(NC(=O)[C@H](CCCCN)NC(=O)c4cc(NC(=O)[C@@H](N)CCCCN)ccc4OC)ccc3OC)ccc2OC)cc1C(N)=O | UV-vis λmax shift | TBS | pH 7.4, monomer-hexamer fit, together with: NaCl 0.15 M |  | association midpoint concentration | 0.19 mM
O=c1c2cc(-c3ccc(Cl)cc3)nc(-c3cccnc3)c2ncn1C1CCC(OP(=O)(O)O)CC1 (stereo not drawn) |  | ICR mice, male, plasma | oral, 300 mg/kg daily, day 1 |  | AUC(0-last) | 386000 ng·h/mL
NC12CNCCNCC(NCc3ccc(CNC(=O)CCCC(=O)NCc4ccc(-c5nncnn5)cc4)cc3)(CNCCNC1)CNCCNC2.[64Cu+2] | OLINDA dosimetry | testes | 48 h pretargeting interval, together with: huA33-TCO pretargeting |  | mean absorbed dose | 0.0322 rad/mCi
CCCCCCCCCCCCCCCC(=O)N[C@@H](CCCCN)C(=O)N[C@@H](CCCCN)C(=O)N[C@@H](CO)C(=O)N[C@@H](CCCNC(=N)N)C(=O)N[C@@H](C)C(=O)N[C@@H](CC(C)C)C(=O)N[C@@H](Cc1ccccc1)C(N)=O |  | cynomolgus monkeys, both sexes, plasma | intravenous infusion, 1 h, doses up to 30 mg/kg |  | Cmax | > 200 µM
CC[C@@H](C)[C@H]1NC(=O)[C@@H]([C@H](C)O)NC(=O)[C@@H](Cc2c[nH]cn2)NC(=O)CNC(=O)[C@@H](CCCNC(=N)N)NC(=O)CNC(=O)[C@@H](Cc2ccccc2)NC1=O |  | New Zealand white rabbit, female, vitreous | ocular, 0.5% eye drop, 50 µL, 24 h |  | concentration | 10.6 ng/mL
C#CCN(CCCNC(=O)CCCCC[N+]1=C(/C=C/C2=C(Cl)C(=C/C=C3\N(CCCCCC(=O)[O-])c4ccccc4C3(C)C)/CCC2)C(C)(C)c2ccccc21)CCCOc1ccc(Cl)cc1Cl |  | mouse plasma | 0.01 µg/mL nominal, 2 weeks, -80 °C |  | concentration | 10 ± 4 ng/mL
CC(=O)N[C@H](CC(=O)O)C(=O)N[C@H](Cc1c[nH]c2ccccc12)C(=O)N[C@H](Cc1ccccc1)C(=O)N[C@H](CCCCN)C(=O)N[C@H](C)C(=O)N[C@H](Cc1ccccc1)C(=O)N[C@H](Cc1ccc(O)cc1)C(=O)N[C@H](CC(=O)O)C(=O)N[C@H](CCCCN)C(=O)N[C@@H](C(=O)N[C@H](C)C(=O)N[C@H](CCC(=O)O)C(=O)N[C@H](CCCCN)C(=O)N[C@H](Cc1ccccc1)C(=O)N[C@H](CCCCN)C(=O)N[C@H](CCC(=O)O)C(=O)N[C@H](C)C(=O)N[C@H](Cc1ccccc1)C(N)=O)C(C)C |  | statin-treated high-risk CHD men, plasma | oral, 300 mg daily, day 13, 0 to 8 h, mean, detected subjects only |  | Cmax | 6.05 ng/mL
CC(C)c1cnc(-c2cc(Cl)ccc2F)cc1Nc1ccncc1C(=O)NC(CO)CO | monotherapy, measured: myalgia | human patients | oral, dose not given, grade 1, phase I A |  | patients with treatment-related adverse event | 4.8%
O=C(Cc1ccc2ccccc2c1)N[C@H](Cc1ccccc1)C(=O)N[C@H](Cc1ccc(OP(=O)(O)O)cc1)C(=O)N[C@H](Cc1ccccc1)C(=O)N[C@H](Cc1ccc(OP(=O)(O)O)cc1)C(=O)O | substrate, rheology | hydrogel | 0.5 wt%, together with: alkaline phosphatase 0.05 U/mL |  | gelation time | 2 h
CC(C)(C)c1cc(-c2ccc3cccnc3n2)nc(-c2ccc3cccnc3n2)c1.COc1ccncc1.[Cl-].[Cl-].[Ru+2].c1ccc2cc3nc4c5cccnc5c5ncccc5c4nc3cc2c1 | 1O2 phosphorescence | acetonitrile | excitation 753 nm | relative to: Ru(bpy)3(PF6)2 | singlet oxygen quantum yield | 0.69
C[C@H](NC(=O)COC(=O)[C@H](C)NC(=O)CO)C(=O)O |  | water | pH 5, 50 °C |  | depolymerization half-life | 2.91 h
NC[C@@H](C(=O)Nc1ccc(-c2cn[nH]c2)cc1)c1ccccc1 |  | New Zealand White rabbits, aqueous humor | topical, 0.1 % one drop, 8 h |  | concentration | ~81.6 ng/mL
O=C(O[C@@H]1Cc2c(O)cc(O)cc2O[C@@H]1c1cc(O)c(O)c(O)c1)c1cc(O)c(O)c(O)c1 |  | human, male, plasma | oral, 135 mg, catechin-rich beverage |  | AUC(0-6h) | 0.664 ± 0.0778 µM·h
CC(C)C[C@@H](NC(=O)[C@H](NC(=O)[C@H]1CCCN1)[C@H](C)O)C(=O)N[C@H](Cc1c[nH]cn1)C(=O)N[C@@H](C(=O)N[C@H](Cc1c[nH]cn1)C(=O)N[C@H](CC(N)=O)C(=O)N[C@H](CCCNC(=N)N)C(=O)N[C@H](CCCNC(=N)N)C(=O)N[C@H](CCCNC(=N)N)C(=O)N[C@H](CCCNC(=N)N)C(=O)N[C@H](CCCNC(=N)N)C(N)=O)[C@H](C)O |  | Beagle dog, plasma | oral, 20 or 50 mg/kg, single dose |  | AUC fraction, half-life up to 3 h | > 75%
CC(C)[C@H](NC(=O)[C@@H]1CCCN1C(=O)[C@H](CCCNC(=N)N)NC(=O)[C@H](CS)NC(=O)[C@H](Cc1c[nH]c2ccccc12)NC(=O)[C@H](CCCNC(=N)N)NC(=O)[C@@H](Cc1ccccc1)NC(=O)[C@H](Cc1c[nH]cn1)NC(=O)[C@H](CCC(=O)O)NC(=O)[C@H](CS)NC(=O)[C@H](CS)NC(=O)[C@@H]1CC(=O)N[C@@H](CCCNC(=N)N)C(=O)NCC(=O)N[C@@H](CC(=O)O)C(=O)N[C@H](Cc2ccc(O)cc2)C(=O)N1)C(N)=O [technetium-99m labelled] |  | C57 mouse, female, B16/F1 melanoma, liver | intravenous, 0.037 MBq, 0.5 h |  | tissue uptake | 2.73 ± 0.75 %ID/g
COc1cc2c(cc1OC)CN(CCCCn1ccc3cc(OCC[18F])ccc31)C2 |  | male ICR mice | intravenous, 280 kBq, 60 min post-injection |  | bone uptake | 5.19 ± 0.84 %ID/g
[11CH3]c1ccc2nc(C3CCC3)n(-c3ccc4[nH]ncc4c3)c2n1 | extrapolated from mouse biodistribution | standard human, drain |  |  | absorbed dose | 1.1 µSv/MBq

Compound | assay | system | conditions | scale | measurement | result
COc1ccc(-c2csc(N/N=C(\C)c3cc(O)cc(O)c3)n2)cc1 | LC-MS/MS | rat plasma | 1000 ng/mL, 45 days, long-term storage at -20 °C |  | concentration after storage | 1030 ng/mL
CN(CCCN=Cc1ccccc1[O-])CCN(C)CCCN=Cc1ccccc1[O-].[67Ga+3] |  | rat | intravenous, 2 h | relative to: heart over blood | tissue uptake ratio | 33.8 ± 4.9
COC(=O)c1ccc(CCc2cc3cc4nc(c(OC)c5[nH]c(cc6nc(cc2[nH]3)CC6(C)C)cc5CCCNC(=O)OC(C)(C)C)C(=O)C4(C)C)cc1 |  | DMF | room temperature |  | kic^−1 | 10 ns
CC12CC(c3ccc(S(C)(=O)=O)cc3)C3=C4CCC(=O)C=C4CCC3C1CCC2(O)C(F)(F)C(F)(F)F (stereo not drawn) |  | human, plasma | intravenous, 15.7 µg, [14C] microdose, geometric mean |  | Vss | 359 L
O=C(CCc1ccc(CNC(C(=O)O)C2CCCCC2)cn1)NO (stereo not drawn) |  | human, plasma | oral, 40 mg once daily, day 7, geometric mean |  | AUC(tau) | 381 ng·h/mL
CC(C)CCCC(C)CCCC(C)CCOC1O[C@H](CO)[C@@H](O)[C@H](O)[C@H]1O (stereo partly drawn) | drop shape analysis | water/n-octane | solubility limit, 100 s, room temperature |  | interfacial tension | 7.3 mN/m
Cc1ccc(OCC(=O)O)cc1 |  | Sprague-Dawley rat, female, plasma | oral gavage, 30 mg/kg of parent drug |  | Cmax | 9730 ± 4240 ng/mL
O=C(NCCCN(CCCCN(CCCNC(=O)c1cccc(=O)n1[O-])C(=O)c1cccc(=O)n1[O-])C(=O)c1cccc(=O)n1[O-])c1cccc(=O)n1[O-].[89Zr+4] | radio-TLC | PBS | 5 d, pH 7.4, 37 °C, together with: Fe^3+ 10-fold excess |  | intact complex | 90.5 ± 3.8%
CC(=O)[CH](C(C)=O)[Pt-2]1([S+](C)C)[O]C(C)=CC(C)=[O+]1 (stereo not drawn) | thermal paw stimulator | rat | dose not given |  | hindpaw heat sensitivity | no effect
N=C(N)NCCC[C@@H]1NC(=O)[C@H](Cc2c[nH]c3ccccc23)NC(=O)[C@@H](CC2CCCCC2)NC(=O)[C@@H]2CCCN2C(=O)[C@@H](NC(=O)CCc2ccccc2)CCCNC1=O |  | C57BL/6J mice, plasma | oral, 1 mg/kg, two-compartment model |  | absorption rate constant | 2.24 h⁻¹
CC(C)[C@H](NC(=O)CNC(=O)[C@H](CCC(N)=O)NC(=O)[C@H](C)N)C(=O)O |  | human, both sexes, plasma | intravenous infusion, 45 mg/kg/h, 2 h infusion, geometric mean |  | Cmax | 1380 ng/mL
CCCC[C@H](NC(C)=O)C(=O)N[C@H]1CC(=O)NCCCC[C@@H](C(=O)N[C@@H](C(=O)N2CCC[C@@H]2C(N)=O)C(C)C)NC(=O)[C@H](Cc2c[nH]c3ccccc23)NC(=O)[C@H](CCCN=C(N)N)NC(=O)[C@@H](Cc2ccc3ccccc3c2)NC(=O)[C@@H]2CCCN2C1=O |  | Beagle dog, both sexes, plasma | subcutaneous, once daily, 0.75 mg/kg, day 1 |  | AUC | 11700 ± 1300 ng·h/mL
NC(=O)[C@H](Cc1ccccc1)N[11C](=O)OCc1ccccc1 |  | male Wistar rats, plasma | intravenous, 5 min |  | intact tracer | 52% and 52.3%
CCCC[C@H](NC(=O)CNC(=O)CNC(=O)CN1CCN(CC(=O)O)CCN(CC(=O)O)CCN(CC(=O)O)CC1)C(=O)N[C@H]1CC(=O)NCCCC[C@@H](C(N)=O)NC(=O)[C@H](Cc2c[nH]c3ccccc23)NC(=O)[C@H](CCCNC(=N)N)NC(=O)[C@@H](Cc2ccccc2)NC(=O)[C@H](Cc2c[nH]cn2)NC1=O [copper-64 labelled] |  | female C57 mouse, B16/F1 melanoma | intravenous, 0.037 MBq, 2 h | relative to: tumour over stomach | uptake ratio | 1.09
Oc1ccc2ccccc2c1/N=N/c1ccc(/N=N/c2ccccc2)cc1 |  | extracted rat blood QC samples | 0.2 µg/L, 8 h, room temperature, short-term stability |  | measured concentration | 0.218 µg/L
NCCC(=O)N1Cc2ccccc2-c2c(nnn2-c2cn(C3OC(CO)C(O)C3O)c(=O)[nH]c2=O)-c2ccccc21 (mixture of isomers) | frequency-domain fluorometry | methanol |  |  | fluorescence lifetime τ3 | 7.8 ns
CC(C)[C@H]1c2ccc(F)cc2CC[C@@]1(CCN(C)CCCc1nc2ccccc2[nH]1)OC(=O)C1CC1 | cytotoxicity, AlamarBlue | human sperm | 3 h |  | IC50 | 62 ± 21 µM
C=CC(=O)Nc1cc(Nc2nccc(-c3cn(C4CC4)c4ccccc34)n2)c(OC)cc1N(C)CCNC | radio-HPLC, co-eluting peaks pooled | human male, urine | oral, 110 mg, 0 to 96 h, sample holds 4.16% dose | relative to: dose | excreted amount | 1.2%
COc1cc(C(=O)COC(=O)CCCN)ccc1O | LC-MS/MS | 1-pentanol | concentration not given |  | photolysis quantum yield | 0.042
COc1ccc(C=NCCCN(C)CCN(C)CCCN=Cc2ccc(OC)cc2[O-])c([O-])c1.[67Ga+3] |  | rat | intravenous, 1 min | relative to: heart over liver | tissue uptake ratio | 1 ± 0.2
CC(CCCOC(=O)CCC[N+](C)(C)C)C1CCC2C3C(OC(=O)CCC[N+](C)(C)C)CC4CC(OC(=O)CCC[N+](C)(C)C)CCC4(C)C3CC(OC(=O)CCC[N+](C)(C)C)C12C (stereo not drawn) |  | mouse red blood cells | 1 h, 37 °C |  | HC50 | > 1000 µg/mL

A few entries again:
Compound | assay | system | conditions | scale | measurement | result
O=c1c2cc(-c3ccc(Cl)cc3)nc(-c3cccnc3)c2ncn1C1CCC(OP(=O)(O)O)CC1 (stereo not drawn) |  | ICR mice, male, plasma | oral, 300 mg/kg daily, day 1 |  | AUC(0-last) | 386000 ng·h/mL
Cn1c(=O)oc2ccc(-c3ccc(CC(C#N)NC(=O)C4CNCCCO4)c(F)c3)cc21 (stereo not drawn) | measured: lymphadenopathy | human volunteers | oral, dose not given |  | treatment-related adverse event incidence | 3.7%
CC[C@@H](C)[C@H]1NC(=O)[C@@H]([C@H](C)O)NC(=O)[C@@H](Cc2c[nH]cn2)NC(=O)CNC(=O)[C@@H](CCCNC(=N)N)NC(=O)CNC(=O)[C@@H](Cc2ccccc2)NC1=O |  | New Zealand white rabbit, female, vitreous | ocular, 0.5% eye drop, 50 µL, 24 h |  | concentration | 10.6 ng/mL
COc1cc(C(=O)COC(=O)CCCN)ccc1O | LC-MS/MS | 1-pentanol | concentration not given |  | photolysis quantum yield | 0.042
